Measured values collected from several papers.
Parts stem from different laboratories: compare values within a part only. Changes are numbered by the printed parent chain.

Study 1
Target: Sal-like protein 4, full length isoform B (SALL4, Homo sapiens, UniProt Q9UJQ4-2, residues 1-616)
Method: universal PBM
Molecule type: double-stranded DNA, one strand shown
Sample: in vitro
Tested at: not given
Notes: 8-mer, flanks averaged, mean of replicates
Reading: higher = stronger binding
Endpoint: E-score
GACCTTCA: -0.0874
CTCAGCTC: -0.313
GGATCAGA: -0.0899
TATTCGGA: 0.0818
CTAACTAA: 0.106
TTGCGAAA: 0.0706
CCTGTTTC: 0.00403
CATTGTGA: -0.176
CCCGGAGC: -0.285
AAGAAGCG: -0.147
ACGTAAAT: 0.191
CCGTCTTA: -0.0354
AGCGGATG: -0.274
ACTATAGG: 0.109
ACTGTTGA: 0.0687
AATGCTCA: 0.104
GTGCTAAC: -0.0853
AGCTTTCC: -0.171
CAGCCTGG: -0.279
AAACTTTC: 0.198
CGAAAAAG: 0.0576
AGTATTCA: 0.226

Study 2
Target: RNA binding protein fox-1 homolog 2, RRM domain, GST-SBP tag (RBFOX2, Homo sapiens, UniProt O43251-10, residues 100-194)
Method: RNA Bind-n-Seq
Molecule type: RNA
Sample: in vitro
Tested at: 365 nM
Notes: natural RNA segment, single round, ends assumed
Baseline: no-protein control
Reading: higher = stronger binding
Endpoint: RBNS enrichment (R)
Shared flanks, not repeated: GGGAGUUCUACAGUCCGACGAUC … UGGAAUUCUCGGGUGCCAA
Target sequence (chain): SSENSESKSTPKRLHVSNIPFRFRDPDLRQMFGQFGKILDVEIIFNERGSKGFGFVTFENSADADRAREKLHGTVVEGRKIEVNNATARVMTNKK
ACAGACAAAAUGAAGACUAUCAUGUGCAAUCUUUUACAGUGGGGUUGAUGAUACAUUUGGAAGGAUUUGCUUGUUUAAUAUGUACAUUUUUUGUGUUAACAGCUUUUUGA: 1.1
GAACUGAAUUUUUUGUCUGUUAAAUGAACUUGAUAGCUAAUAAAAAGACAACUAGCCAUCAAAAUCAUAUGUUUCUCUACAGAUUUAGUUCUUUAUAGAGGUACUUUUUA: 0.43
CCAGUUUUACGAACAACAGAUUUCUAAAUUAGAGAGGUUAACAAGACAGAUGAUUACUAUGCCUCAUGUGCUGUGUGCUCUUUGAAAGGAAUGACAGCAGACUACAAAGC: 0.57
UUCCCCACCAGACCUUUGUAGCUCCUCCAGCCUCUGCAGAGACUCCCUUCACCUCGCACUUACUGCCUGGGAACCACGGCCCUUCUCUUCUGUGGGUCUGUACCAGGUAC: 0.736
GUGGCAUGACAUUCUGCAAUACUUUGCUGAAUUGAACACUAUUGUGUCUUAAAUACUUGCACUAAAUAGUGCACUGCAAGACCAGAAAAUUUUACAAUAUUUUUUCUUUA: 1.13
AGGAAUUUGUAAUUUGAGACCUAGUAUUUUUACACAAUAAACCUGCUAAAACAGGCUUUAAAAGACAGCAAAAUAAGCCAUAUGUAGUGGUGUUAAGACUGUAAUCCCAG: 0.392
CCCAUUUGCACUCUAUUUCAAAGAAUUGUUAUUGUUCCCUUUCGUUAAAAUCAGUGUUGGGAAUUAAAUUAUAAUUUGAGGGGAAAAUAUCCAAUGGGAAUGAAUGUAGA: 0.828
UGGCACUAGGCCCUUCACCUUGACUGUGUGCAUGCAUGACCUGCAAUAGAGCCCACCAACCACAUAGAAGUCCCCUGGCUAGAGUCUGAUGCCUGGUGGCUUACCGGACU: 5.5
GUGGUUUGCCCCCCAGGUGUAAUUUUUCUUUUGUUAUUAUUCCUCCUCCUAUUGUGUAUAGGUGUGUAUAUGUGUGUAAAUAUUUCACACAACAACAUCUGUACAAGCAU: 0.842
AUCGAGGCAAAGUAAUUAGUCAUGUUUGGGUUUGCUUUUUUUGUUGAUAAGAUUAACAAUGUGUGCUUUGUAAAUGCCUUUUUCCUUAUCUUCUAUGUCUCUGUCAAGGA: 0.597
AACCCCUAGAGCAACCCCCUCUCCUAGCAUUGCCAAAUGCUGGUCUUGGUGAGGAUGGGUUUCAAACAGCACACUCCUCCCGGUGGAGGAAGAUUAACAACAGUCUCUCC: 0.279
CUCUUAAUAGUUGUGUAUAAUGAAAACUGUAAACUUUUUUAAAUAAAAUGUGUAUAUACCUUGGCAAUGGCUGAACUUGAUCUAUCACAGCUGCCCCACGCACAUCCAAC: 0.885

Study 3
Target: CCNB2, cyclin fold, Cln2 fusion (human)
Method: yeast growth competition, sequencing
Sample: yeast
Notes: strong parent motif
Baseline: not given
Reading: higher = stronger binding
Endpoint: normalised enrichment score
Starting sequence: CUX1 docking peptide (human); SRIRRELFIEEIQ; partner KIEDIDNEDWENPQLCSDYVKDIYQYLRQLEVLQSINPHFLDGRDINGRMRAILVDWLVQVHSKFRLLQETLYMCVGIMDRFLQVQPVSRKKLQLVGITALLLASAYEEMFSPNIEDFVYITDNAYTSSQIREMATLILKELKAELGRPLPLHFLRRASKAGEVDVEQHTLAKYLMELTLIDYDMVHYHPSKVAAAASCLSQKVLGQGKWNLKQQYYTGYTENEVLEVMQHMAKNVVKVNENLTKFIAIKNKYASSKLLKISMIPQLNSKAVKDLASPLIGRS
SRIRREAFIEEIQ [L7A]: 0.126
SRIRRELFIEEAQ [I12A]: 0.0931
SRIRAEAFIEEIQ [R5A L7A]: -0.137
SAIRRELFIEEIQ [R2A]: 0.372
SRARRELFIEEIQ [I3A]: -0.0865
SRIRRELFAEEIQ [I9A]: -0.0244
SRIRRELLIEEIQ [F8L]: 1
SRIRRALFIEEIQ [E6A]: 0.756
SRIRKELLIEEIQ [R5K F8L]: 0.795
SRIRRELFIEEIA [Q13A]: 0.356

Study 4
Target: Prothrombin, mature alpha-thrombin (F2, Homo sapiens, UniProt P00734)
Method: aptamer microarray, sandwich
Molecule type: DNA with 2'F-ANA
Sample: in vitro
Tested at: 200 nM
Notes: whole 15-mer aptamer, many near background
Added: Cy3 exosite-II aptamer, 400 nM
Reading: higher = stronger binding
Endpoint: mean fluorescence intensity
Oligonucleotide: GGTTGGTGTGGTTGG
2'F-ANA at 4 5 6 8 9 10 12 13 14 15: 46 a.u.
2'F-ANA at 2 3 4 6 8 9 10 12 13: 218 a.u.
2'F-ANA at 1 2 3 5 6 8 9 10 15: 46.9 a.u.
2'F-ANA at 1 2 7 9 10 11 12 13 15: 64.5 a.u.
2'F-ANA at 1 3 9 11 14 15: 122 a.u.
2'F-ANA at 3 8 9 10 11 12 13: 558 a.u.
2'F-ANA at 11 12 15: 659 a.u.
2'F-ANA at 1 2 7 9 12 13: 282 a.u.
2'F-ANA at 2 3 6 7 9 10 11 12 13 14 15: 222 a.u.
2'F-ANA at 2 3 5 6 7 10 11 14 15: 75.3 a.u.
2'F-ANA at 4 6 7 10 11 13: 66.1 a.u.
2'F-ANA at 1 2 3 5 7 9 10 11: 48.2 a.u.
2'F-ANA at 4 6 7 8 9 12 13 15: 346 a.u.
2'F-ANA at 2 3 4 5 7 15: 122 a.u.
2'F-ANA at 5 6 10 11 12 13 14 15: 148 a.u.
2'F-ANA at 2 4 5 7 8 10 11 13 15: 52.3 a.u.
2'F-ANA at 1 4 9 11 12 14 15: 88.7 a.u.
2'F-ANA at 3 5 7 9 10 12 13 14 15: 56.1 a.u.
2'F-ANA at 5 7: 153 a.u.
2'F-ANA at 2 4 5 6 7 9 11 12 13 14: 46 a.u.
2'F-ANA at 1 3 4 7 9 12 13 14 15: 67.9 a.u.
2'F-ANA at 1 4 6 7 8 10 11 12 13 14 15: 80.6 a.u.
2'F-ANA at 1 3 5 6 8 10 12 14: 129 a.u.

Study 5
Target: Interferon regulatory factor 7, full length, phosphomimetic (IRF7, Homo sapiens, UniProt Q92985, residues 1-503, S471D/S472D/S475D/S476D/S477D/S483D/S484D/S487D)
Method: protein-binding microarray
Molecule type: double-stranded DNA, one strand shown
Sample: in vitro
Tested at: 2200 nM top
Notes: 60-bp whole probe
Added: salmon DNA 0.4 mg/ml
Baseline: random background probes
Reading: higher = stronger binding
Endpoint: fitted relative affinity
Shared flanks, not repeated: GCCTAGCAC … GTCTTGATTCGCTTGACGCTGCTG
Residues (chain): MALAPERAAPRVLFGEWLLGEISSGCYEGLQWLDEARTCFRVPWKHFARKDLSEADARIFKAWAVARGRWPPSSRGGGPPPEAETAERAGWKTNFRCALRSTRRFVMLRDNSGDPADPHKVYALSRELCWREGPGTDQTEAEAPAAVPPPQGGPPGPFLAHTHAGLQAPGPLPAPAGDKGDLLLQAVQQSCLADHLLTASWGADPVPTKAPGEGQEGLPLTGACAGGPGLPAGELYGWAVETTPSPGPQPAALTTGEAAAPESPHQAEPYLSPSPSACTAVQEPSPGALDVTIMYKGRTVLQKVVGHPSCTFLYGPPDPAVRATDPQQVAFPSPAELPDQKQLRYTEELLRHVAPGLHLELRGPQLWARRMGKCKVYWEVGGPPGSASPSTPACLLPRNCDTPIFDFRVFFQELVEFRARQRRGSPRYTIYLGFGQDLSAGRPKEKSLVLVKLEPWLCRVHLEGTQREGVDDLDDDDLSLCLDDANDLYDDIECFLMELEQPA
TCACCCCTAGGGGGCAGTATGTGCTAG: 0.193 z-score
TTAGGACTGCTACTGCTGTAGTGCTAG: -0.502 z-score
TTAGGTTACGGGACTGGGTTAGTGCTA: -0.192 z-score
GAAGGTATCCTTCTCCTGACGTGCTAG: 0.665 z-score
TTCGGTATCGGACTGGGTTAGTGCTAG: 0.649 z-score
TCACATCTGGGTATTTTACTGTGCTAG: 1.02 z-score
GACCAACTGGGGACTGGAGACGTGCTA: -0.673 z-score
GACGGACTGGGGGCTGGGGACGTGCTA: -0.0948 z-score
TCAGTTTTTGCTTTCTTACTGTGCTAG: 3.92 z-score
TTAGGTATCGGGTTTCGGTAAGTGCTA: 1.73 z-score
TCATTTTCCTATGTCATACTGTGCTAG: 4.26 z-score
GACGGTACCGACACTGGGGACGTGCTA: -0.744 z-score
GACGGACTGGTTCTCCTGACGTGCTAG: -0.136 z-score
TTAGGTTCCCTTTTGCTTTAGTGCTAG: 3.16 z-score
GACGGTATCGGTTCCGGGACGTGCTAG: 1.17 z-score
TTAGGACTGGACTATCGGTTCGTGCTA: 0.451 z-score
TTAGGACTGGACTTTGGGTTAGTGCTA: -0.538 z-score
TCATGTTTCTCAACCAGACTGTGCTAG: 1.85 z-score
GACGAACTGCGACTGGAGACGTGCTAG: -0.0118 z-score
GACTGACTGGACTATCGGGACGTGCTA: -0.242 z-score
TTAGGACTGGGTATCGGTAAGTGCTAG: -0.347 z-score
TTAGGACTTGGTTTCGGTTAGTGCTAG: 6.17 z-score
TCAGTTTCGTATCTTCATTGTGTGCTA: 7.96 z-score
GACGATATCAGTCTTGAGACGTGCTAG: 0.332 z-score
GAGATGATCCAGTTTTACCTGGTGCTA: 0.22 z-score

Study 6
Target: Histone acetyltransferase KAT6A, winged helix 2, GST fusion (KAT6A, Homo sapiens, UniProt Q92794, residues 85-181)
Method: protein binding microarray
Molecule type: double-stranded DNA, one strand shown
Sample: in vitro
Tested at: not given
Notes: 8-mer, flanks averaged, mean of 2 arrays, mostly near background
Baseline: not given
Reading: higher = stronger binding
Endpoint: E-score
Target sequence (chain): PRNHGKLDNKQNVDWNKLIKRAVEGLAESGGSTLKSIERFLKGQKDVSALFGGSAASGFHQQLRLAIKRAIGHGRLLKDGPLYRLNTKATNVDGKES
ATAGGTCC: 0.0495
TCCCGAAA: -0.113
ATTCATGC: 0.00569
GTAACCCA: 0.0588
AGAAGAGC: 0.114
CTGTACGC: -0.0268
GAATCTTA: -0.0171
AAAAACGA: -0.0793
CGCGAGAC: 0.0199
CCATTACA: -0.094
GAGGGCGA: -0.154
ACACCGGT: -0.12
GGAACTCC: 0.0679
CTAGTAAA: 0.0641
CACCCGCA: 0.126
AGTATGCA: 0.0252
CGCACTAC: 0.153
GAAAGTGA: -0.0276
CGTTCTCC: -0.0417
AAGCCCGA: 0.0789
CTTTCGAA: -0.0349
ACGCTTAA: -0.134
AAACCACT: -0.0444
AGCGGCAA: 0.17

Repeated from above (study 3):
SRIRREAFIEEIQ [L7A]: 0.126
SRIRRELFIEEAQ [I12A]: 0.0931
SRIRAEAFIEEIQ [R5A L7A]: -0.137
SAIRRELFIEEIQ [R2A]: 0.372
SRARRELFIEEIQ [I3A]: -0.0865
SRIRRELFAEEIQ [I9A]: -0.0244
SRIRRELLIEEIQ [F8L]: 1
SRIRRALFIEEIQ [E6A]: 0.756
SRIRKELLIEEIQ [R5K F8L]: 0.795
SRIRRELFIEEIA [Q13A]: 0.356
